Assay results collected from several papers.
Numbered parts are unrelated; each lists some results of a single study. “And” joins repeats or separate records; there may be more than shown.
Sequence of UniProt P06213 (whole entry, looked up): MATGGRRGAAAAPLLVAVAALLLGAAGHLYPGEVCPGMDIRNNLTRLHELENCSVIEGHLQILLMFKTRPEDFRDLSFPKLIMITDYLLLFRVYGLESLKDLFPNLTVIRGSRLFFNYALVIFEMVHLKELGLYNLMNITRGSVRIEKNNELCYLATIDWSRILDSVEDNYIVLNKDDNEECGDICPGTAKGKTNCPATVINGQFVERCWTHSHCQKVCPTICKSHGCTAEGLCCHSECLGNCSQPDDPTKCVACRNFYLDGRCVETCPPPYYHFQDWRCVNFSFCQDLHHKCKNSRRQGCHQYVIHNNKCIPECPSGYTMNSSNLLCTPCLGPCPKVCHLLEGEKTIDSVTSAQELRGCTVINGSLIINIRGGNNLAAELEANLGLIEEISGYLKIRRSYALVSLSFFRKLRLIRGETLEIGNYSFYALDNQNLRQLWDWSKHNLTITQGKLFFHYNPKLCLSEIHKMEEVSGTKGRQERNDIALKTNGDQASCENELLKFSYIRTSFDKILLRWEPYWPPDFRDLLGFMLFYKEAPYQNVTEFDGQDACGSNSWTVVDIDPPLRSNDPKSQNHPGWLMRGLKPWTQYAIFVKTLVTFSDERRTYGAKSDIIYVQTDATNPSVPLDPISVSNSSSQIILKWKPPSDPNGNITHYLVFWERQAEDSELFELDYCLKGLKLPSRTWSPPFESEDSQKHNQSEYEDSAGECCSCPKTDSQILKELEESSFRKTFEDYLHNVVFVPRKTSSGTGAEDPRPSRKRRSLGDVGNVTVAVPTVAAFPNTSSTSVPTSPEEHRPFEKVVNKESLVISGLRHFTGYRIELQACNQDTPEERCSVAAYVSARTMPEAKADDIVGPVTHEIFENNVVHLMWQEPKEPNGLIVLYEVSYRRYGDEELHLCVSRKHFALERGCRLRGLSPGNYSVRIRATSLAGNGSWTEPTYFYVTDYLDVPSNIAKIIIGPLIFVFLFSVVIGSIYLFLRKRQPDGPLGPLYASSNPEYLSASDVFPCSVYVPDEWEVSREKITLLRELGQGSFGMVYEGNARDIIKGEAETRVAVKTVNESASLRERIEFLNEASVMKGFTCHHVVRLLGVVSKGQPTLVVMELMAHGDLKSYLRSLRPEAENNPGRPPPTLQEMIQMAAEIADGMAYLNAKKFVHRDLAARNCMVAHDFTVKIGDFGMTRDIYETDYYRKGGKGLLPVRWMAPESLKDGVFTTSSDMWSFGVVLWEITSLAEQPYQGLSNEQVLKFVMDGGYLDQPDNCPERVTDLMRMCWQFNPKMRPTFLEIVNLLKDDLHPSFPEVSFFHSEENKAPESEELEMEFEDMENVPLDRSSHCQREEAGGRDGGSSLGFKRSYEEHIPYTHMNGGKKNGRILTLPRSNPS
Sequence of UniProt Q9H2K8 (whole entry, looked up): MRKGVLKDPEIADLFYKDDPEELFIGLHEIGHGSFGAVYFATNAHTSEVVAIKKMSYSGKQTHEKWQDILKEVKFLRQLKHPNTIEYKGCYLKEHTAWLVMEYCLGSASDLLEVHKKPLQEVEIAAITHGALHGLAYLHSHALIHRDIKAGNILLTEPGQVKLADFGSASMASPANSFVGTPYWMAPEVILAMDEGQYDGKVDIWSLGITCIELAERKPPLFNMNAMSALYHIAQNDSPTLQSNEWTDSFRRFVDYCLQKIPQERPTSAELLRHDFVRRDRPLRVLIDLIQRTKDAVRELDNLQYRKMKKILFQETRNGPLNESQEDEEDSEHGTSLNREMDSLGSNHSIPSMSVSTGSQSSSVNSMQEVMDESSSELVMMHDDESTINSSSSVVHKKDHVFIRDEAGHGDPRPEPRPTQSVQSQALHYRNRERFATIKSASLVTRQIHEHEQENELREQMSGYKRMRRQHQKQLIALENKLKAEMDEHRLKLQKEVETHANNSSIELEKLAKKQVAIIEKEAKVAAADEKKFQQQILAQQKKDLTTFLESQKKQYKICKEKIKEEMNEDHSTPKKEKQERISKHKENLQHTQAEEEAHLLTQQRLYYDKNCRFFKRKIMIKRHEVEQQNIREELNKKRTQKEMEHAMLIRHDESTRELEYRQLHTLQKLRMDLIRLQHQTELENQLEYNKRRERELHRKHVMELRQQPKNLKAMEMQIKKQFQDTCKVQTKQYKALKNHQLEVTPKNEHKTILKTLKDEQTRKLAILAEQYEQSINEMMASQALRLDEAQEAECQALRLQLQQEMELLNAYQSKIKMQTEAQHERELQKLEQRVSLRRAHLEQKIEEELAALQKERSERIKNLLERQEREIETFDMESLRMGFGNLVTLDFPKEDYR
Sequence of UniProt P06241 (whole entry, looked up): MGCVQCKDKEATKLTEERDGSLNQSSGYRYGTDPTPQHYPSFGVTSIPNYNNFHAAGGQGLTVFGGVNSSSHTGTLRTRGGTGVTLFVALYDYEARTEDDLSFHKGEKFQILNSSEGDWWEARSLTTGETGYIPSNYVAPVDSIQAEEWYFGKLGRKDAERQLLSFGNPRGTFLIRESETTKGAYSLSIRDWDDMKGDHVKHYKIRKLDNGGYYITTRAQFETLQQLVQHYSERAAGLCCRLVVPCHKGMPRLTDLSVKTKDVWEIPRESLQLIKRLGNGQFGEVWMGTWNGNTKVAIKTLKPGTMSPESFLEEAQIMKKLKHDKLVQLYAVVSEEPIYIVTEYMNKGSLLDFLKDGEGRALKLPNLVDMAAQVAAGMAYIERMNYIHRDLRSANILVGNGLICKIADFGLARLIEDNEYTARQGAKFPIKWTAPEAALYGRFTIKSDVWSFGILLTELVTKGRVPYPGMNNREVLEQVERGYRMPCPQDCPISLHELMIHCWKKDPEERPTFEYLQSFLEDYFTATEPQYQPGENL
Sequence of UniProt P53667 (whole entry, looked up): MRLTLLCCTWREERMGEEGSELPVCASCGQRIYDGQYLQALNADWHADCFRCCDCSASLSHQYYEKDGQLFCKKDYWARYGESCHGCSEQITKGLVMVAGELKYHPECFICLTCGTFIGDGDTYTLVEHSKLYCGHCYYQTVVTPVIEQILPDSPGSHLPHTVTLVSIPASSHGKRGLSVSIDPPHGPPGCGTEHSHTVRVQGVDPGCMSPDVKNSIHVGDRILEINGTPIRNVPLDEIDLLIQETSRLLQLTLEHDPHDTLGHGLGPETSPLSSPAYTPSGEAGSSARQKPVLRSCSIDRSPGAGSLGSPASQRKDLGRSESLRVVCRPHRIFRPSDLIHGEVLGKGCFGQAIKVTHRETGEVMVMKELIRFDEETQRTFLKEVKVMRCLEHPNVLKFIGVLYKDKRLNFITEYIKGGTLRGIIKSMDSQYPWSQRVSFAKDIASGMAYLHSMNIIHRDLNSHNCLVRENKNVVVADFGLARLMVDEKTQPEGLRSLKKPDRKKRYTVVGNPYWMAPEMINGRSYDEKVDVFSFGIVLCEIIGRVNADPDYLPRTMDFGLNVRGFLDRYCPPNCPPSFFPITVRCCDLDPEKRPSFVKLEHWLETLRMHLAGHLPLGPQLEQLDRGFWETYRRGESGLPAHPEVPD
Sequence of UniProt P42679 (whole entry, looked up): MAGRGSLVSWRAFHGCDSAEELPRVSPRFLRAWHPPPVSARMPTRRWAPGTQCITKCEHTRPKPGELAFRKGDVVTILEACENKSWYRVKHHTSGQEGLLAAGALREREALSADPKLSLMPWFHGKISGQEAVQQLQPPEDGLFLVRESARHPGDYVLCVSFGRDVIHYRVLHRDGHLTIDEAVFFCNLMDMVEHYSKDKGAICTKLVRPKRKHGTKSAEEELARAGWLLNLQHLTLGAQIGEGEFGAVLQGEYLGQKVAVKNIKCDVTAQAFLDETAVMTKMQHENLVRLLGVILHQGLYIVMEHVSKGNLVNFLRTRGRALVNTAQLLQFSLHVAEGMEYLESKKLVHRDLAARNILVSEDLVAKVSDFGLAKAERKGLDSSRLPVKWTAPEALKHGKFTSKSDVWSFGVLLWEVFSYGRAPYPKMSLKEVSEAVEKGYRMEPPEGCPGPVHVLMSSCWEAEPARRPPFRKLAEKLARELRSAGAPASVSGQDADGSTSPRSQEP

Study 1 — observed: enzyme activity; action: inhibitor; concentration: 0.5 µM; relative to: control
SMILES: O=C1NC(=O)c2c1c1c3ccccc3n3c1c1c2c2ccccc2n1[C@H]1CC[C@@H]3O1
target	remaining activity
FGR (Homo sapiens, UniProt P09769)	30.9%
FYN (Homo sapiens, UniProt P06241)	59.9%
LIM domain kinase 1 (LIMK1, Homo sapiens, UniProt P53667)	49.3%
STK25 (Homo sapiens, UniProt O00506)	34.4%
HIPK1 (Homo sapiens, UniProt Q86Z02)	93.6%
MATK (Homo sapiens, UniProt P42679)	91.7%
TAOK3 (Homo sapiens, UniProt Q9H2K8)	24.5%
FLT4 (Homo sapiens, UniProt P35916)	4.97%
NLK (Homo sapiens, UniProt Q9UBE8)	74.1%
PASK (Homo sapiens, UniProt Q96RG2)	43.3%
Insulin receptor (INSR, Homo sapiens, UniProt P06213)	17.2%

Study 2 — observed: RNA clamping; method: fluorescence polarization; concentration: concentration not given; notes: mean of two replicates; together with: FAM-labelled poly r(AG)8 RNA
Target: Eukaryotic initiation factor 4A-I (EIF4A1, Homo sapiens, UniProt P60842)
Sequence of UniProt P60842 (whole entry, looked up): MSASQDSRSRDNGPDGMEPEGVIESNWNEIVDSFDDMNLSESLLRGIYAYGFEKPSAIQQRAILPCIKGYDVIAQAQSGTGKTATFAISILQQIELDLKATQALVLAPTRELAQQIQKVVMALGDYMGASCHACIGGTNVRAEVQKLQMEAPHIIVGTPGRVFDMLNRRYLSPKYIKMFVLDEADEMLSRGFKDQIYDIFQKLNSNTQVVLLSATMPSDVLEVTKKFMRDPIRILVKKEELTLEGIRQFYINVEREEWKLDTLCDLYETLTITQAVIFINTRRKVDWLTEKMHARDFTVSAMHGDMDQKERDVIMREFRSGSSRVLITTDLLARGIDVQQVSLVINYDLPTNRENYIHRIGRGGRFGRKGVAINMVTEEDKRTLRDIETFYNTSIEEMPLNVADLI
Compound	fluorescence polarization change
COc1ccc([C@@]23Oc4cc(OC)cc(OC)c4[C@]2(O)c2nc(-c4ccc(OCc5ccccc5)cc4)[nH]c(=O)c2[C@H]3c2ccccc2)cc1	5.5 mP
COCCN[C@]12c3c(OC)cc(OC)cc3O[C@@]1(c1ccc(OC)cc1)[C@H](c1ccccc1)[C@@H](C(=O)N(C)C)[C@H]2O	7.3 mP
COc1ccc([C@@]23Oc4cc(OC)cc(OC)c4[C@]2(O)C(=O)C[C@H]3c2ccccc2)cc1	47.3 mP
COc1cc(F)cc2c1[C@]1(O)[C@H](O)[C@H](/C(N)=N/O)[C@@H](c3ccccc3)[C@]1(c1ccc(Br)cc1)O2	60.1 mP
COC(=O)[C@@H]1[C@@H](c2ccccc2)[C@]2(c3ccc(OC)cc3)Oc3cc(OC)cc(OC)c3[C@@]1(O)[C@@H]2O	3.7 mP and 8 mP and 3.2 mP and 5.5 mP
CCOc1ccccc1-c1nc2c(c(=O)[nH]1)[C@@H](c1ccccc1)[C@]1(c3ccc(OC)cc3)Oc3cc(OC)cc(OC)c3[C@]21O	62 mP
COC(=O)[C@@H]1[C@@H](c2ccccc2)[C@@]2(c3ccc(Br)cc3)C(=O)[C@]1(O)c1c(OC)cc(OC)cc1N2C	3 mP

Study 3 — observed: enzyme activity; action: inhibitor; concentration: 10 µM
Target: Calcium/calmodulin-dependent protein kinase type II subunit alpha (CAMK2A, Homo sapiens, UniProt Q9UQM7)
Sequence of UniProt Q9UQM7 (whole entry, looked up): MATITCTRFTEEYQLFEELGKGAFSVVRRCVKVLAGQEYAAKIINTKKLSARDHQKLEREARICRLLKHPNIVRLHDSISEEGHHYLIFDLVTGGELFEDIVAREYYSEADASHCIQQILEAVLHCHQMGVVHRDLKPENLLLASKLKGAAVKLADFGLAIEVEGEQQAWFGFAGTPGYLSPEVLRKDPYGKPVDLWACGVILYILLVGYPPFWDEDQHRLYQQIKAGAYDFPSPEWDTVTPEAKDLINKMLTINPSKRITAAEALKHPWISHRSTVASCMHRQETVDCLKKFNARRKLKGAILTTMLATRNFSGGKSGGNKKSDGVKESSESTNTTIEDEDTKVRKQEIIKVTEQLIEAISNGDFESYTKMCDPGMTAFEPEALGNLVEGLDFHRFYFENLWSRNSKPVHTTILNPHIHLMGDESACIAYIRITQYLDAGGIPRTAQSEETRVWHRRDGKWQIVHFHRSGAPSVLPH
Compound	inhibition
C=C1CC[C@H]2[C@@H](/C=C(/C)C(=O)[C@@]3(O)C[C@H](C)[C@H](O)[C@@H]3[C@H]1O)C2(C)C	11%
C[C@]12CC[C@H]3[C@@H](CC[C@]4(O)C[C@@H](O)CC[C@]34C=O)[C@@]1(O)CC[C@@H]2C1=CC(=O)OC1	-50%
CC(Cc1ccc(O)cc1)NCC(O)c1cc(O)cc(O)c1 (stereo not shown)	-4%
O=C(O)COc1ccc(Cl)cc1Cl	-8%
CC(C)(O)CC[C@@H](O)[C@](C)(O)[C@H]1CC[C@@]2(O)C3=CC(=O)[C@@H]4C[C@@H](O)[C@@H](O)C[C@]4(C)[C@H]3[C@H](O)C[C@]12C	-14%
CCC1CCC(=O)O1 (stereo not shown)	4%
O=c1cc(O)c2ccccc2o1	-12%
CC(=O)O[C@@]12CO[C@@H]1C[C@@H](O)[C@@]1(C)C(=O)[C@H](O)C3=C(C)[C@@H](OC(=O)[C@H](O)[C@@H](NC(=O)c4ccccc4)c4ccccc4)C[C@@](O)([C@@H](OC(=O)c4ccccc4)[C@H]21)C3(C)C	-40%
CN1C2CC(OC(=O)C(CO)c3ccccc3)CC1C(O)C2 (stereo not shown)	9%

Other studies, line by line
SMILES	cell line	concentration	time	quantity	result
N#Cc1nn(-c2c(Cl)cc(C(F)(F)F)cc2Cl)c(N)c1[S+]([O-])C(F)(F)F (stereo not shown)	HaCaT	100 µM	60 h	viability	15.1%

Excerpt of the above (study 3):
Compound	inhibition
CC(C)(O)CC[C@@H](O)[C@](C)(O)[C@H]1CC[C@@]2(O)C3=CC(=O)[C@@H]4C[C@@H](O)[C@@H](O)C[C@]4(C)[C@H]3[C@H](O)C[C@]12C	-14%
CCC1CCC(=O)O1 (stereo not shown)	4%
O=c1cc(O)c2ccccc2o1	-12%
CC(=O)O[C@@]12CO[C@@H]1C[C@@H](O)[C@@]1(C)C(=O)[C@H](O)C3=C(C)[C@@H](OC(=O)[C@H](O)[C@@H](NC(=O)c4ccccc4)c4ccccc4)C[C@@](O)([C@@H](OC(=O)c4ccccc4)[C@H]21)C3(C)C	-40%
